Measurements collected from several papers.
Each line is one published result; not all experiments were run side by side. ± gives the spread as reported.

| SMILES | assay | system | conditions | half-life [h] |
| --- | --- | --- | --- | --- |
| Cc1c(Cc2cc(Cl)cc(OC(C)C(=O)O)c2)c2ccc(C(=O)NC(C)c3ccc(C(C)(C)C)cc3)cc2n1CC1CC1 (centres unmarked) | – | mouse liver microsomes | 1 µM, together with: microsomes 1 mg/mL | > 1 |
| C/C(N)=N/C(=N\S(=O)(=O)c1ccc(C(F)(F)F)cc1)N1C[C@H](c2ccccc2)C(c2ccc(Cl)cc2)=N1 | – | dog liver cytosol | – | > 2 |
| Brc1nccs1 | – | – | pH 7.4 | 45.5 |
| Cc1c(Cc2cncc(O[C@H](C)C(=O)O)c2)c2ccc(C(=O)N[C@@H](C)c3ccc(C(C)(C)C)cc3)cc2n1CC1CCC1 | – | human liver microsomes | – | 0.83 |
| CCOC(=O)C12CC(N)(C1)C2 | metabolic stability | human liver microsomes | – | 0.2 |
| Cc1c(Cc2ccc(Cl)c(O[C@H](C)C(=O)O)c2)c2ccc(C(=O)N[C@@H](C)c3ccc(C(C)(C)C)cc3)cc2n1CC(C)C | – | human liver microsomes | 1 µM, together with: microsomes 1 mg/mL | > 1 |
| CSCc1cn(-c2cccc(C(=O)N3CCC(c4nc(-c5ccccc5)n[nH]4)CC3)c2)nn1 | – | CD-1 mouse liver microsomes | pH 7.4, together with: NADPH | 0.02 |
| OB(O)c1sccc1/C=N/OCc1ccccc1 | UV-visible spectroscopy | PBS | 80 µM, pH 7.4 | 1.97 |
| O=C=Nc1cc(C(F)(F)F)cc(C(F)(F)F)c1 | reactivity with N-α-acetyl-lysine, HPLC-MS | – | pH 10.2 | < 0.0167 |
| CC(C)C[C@H](NC(=O)[C@H](Cc1ccc(O)cc1)NC(=O)[C@H](CC(N)=O)NC(=O)[C@H](CO)NC(=O)[C@H](CCCNC(=N)N)NC(=O)[C@H](Cc1ccc(O)cc1)NC(=O)CNC(=O)[C@H](CCCNC(=N)N)NC(=O)[C@H](Cc1c[nH]cn1)NC(=O)[C@H](CO)NC(=O)[C@H](Cc1c[nH]cn1)NC(=O)[C@H](Cc1c[nH]cn1)NC(=O)[C@H](CCCCN)NC(=O)[C@H](CCC(=O)O)NC(=O)[C@H](Cc1c[nH]cn1)NC(=O)[C@H](Cc1ccccc1)NC(=O)[C@H](CCCCN)NC(=O)[C@H](CCCNC(=N)N)NC(=O)[C@H](CCCCN)NC(=O)[C@H](Cc1ccc(O)cc1)NC(=O)CNC(=O)[C@H](Cc1c[nH]cn1)NC(=O)[C@H](Cc1c[nH]cn1)NC(=O)[C@H](CCCNC(=N)N)NC(=O)[C@H](CCCCN)NC(=O)[C@H](C)NC(=O)[C@H](Cc1c[nH]cn1)NC(=O)[C@H](CO)NC(=O)[C@@H](N)CC(=O)O)C(=O)N[C@@H](Cc1ccc(O)cc1)C(=O)N[C@@H](CC(=O)O)C(=O)N[C@@H](CC(N)=O)C(=O)O | – | human parotid secretion | 37 °C, mean, no protease inhibitors | 7.2 ± 5.5 |
| Cc1c(Cc2cccc(OC(C)(C)C(=O)O)c2)c2ccc(C(=O)N[C@@H](C)c3cccc(C(C)(C)C)c3)cc2n1CC1CC1 | – | human liver microsomes | – | 0.44 |
| O=Cn1nnc2ccccc21 | reactivity with N-α-acetyl-lysine, HPLC-MS | – | pH 10.2 | 27.7 |
| CCCC/C=C/C(=O)N[C@@H](Cc1cc(F)cc(F)c1)C(=O)N[C@H]1COC(=O)[C@@H]2CCCN2C(=O)[C@H](C)NC(=O)[C@@H]2CCCCN2C(=O)[C@@H]2CCCN2C1=O | H-D exchange, 1H NMR, measured: alanine amide hydrogen | CD3OD | 25 °C | 1.03 |
| Cc1c(Cc2ccc(Cl)c(O[C@@H](C)C(=O)O)c2)c2ccc(C(=O)N[C@@H](C)c3cc(F)cc(C(C)(C)C)c3)cc2n1C | – | mouse liver microsomes | 1 µM, together with: microsomes 1 mg/mL | > 1 |
| CC1(C)OB(c2cc(C(F)(F)F)ccc2C=O)OC1(C)C | chemical stability, HPLC-MS | BBS buffer with acetonitrile | pH 10.2 | < 0.0167 |
| Clc1ccncc1 | – | – | pH 7.4 | 42.2 |
| O=C1CCC(N2Cc3c(NC(=O)OCc4cc(C(=O)O)ccc4OP(=O)(O)O)cccc3C2=O)C(=O)N1 (centres unmarked) | – | simulated gastric fluid | 10 µM, 2 h incubation, pH 1.2 | > 2 |

Excerpt of the above:
| SMILES | assay | system | conditions | half-life [h] |
| --- | --- | --- | --- | --- |
| Cc1c(Cc2cccc(OC(C)(C)C(=O)O)c2)c2ccc(C(=O)N[C@@H](C)c3cccc(C(C)(C)C)c3)cc2n1CC1CC1 | – | human liver microsomes | – | 0.44 |
